Experimental data pooled from the literature.
A part holds a random share of what one study measured.
Chain of UniProt Q13188 (whole entry, looked up): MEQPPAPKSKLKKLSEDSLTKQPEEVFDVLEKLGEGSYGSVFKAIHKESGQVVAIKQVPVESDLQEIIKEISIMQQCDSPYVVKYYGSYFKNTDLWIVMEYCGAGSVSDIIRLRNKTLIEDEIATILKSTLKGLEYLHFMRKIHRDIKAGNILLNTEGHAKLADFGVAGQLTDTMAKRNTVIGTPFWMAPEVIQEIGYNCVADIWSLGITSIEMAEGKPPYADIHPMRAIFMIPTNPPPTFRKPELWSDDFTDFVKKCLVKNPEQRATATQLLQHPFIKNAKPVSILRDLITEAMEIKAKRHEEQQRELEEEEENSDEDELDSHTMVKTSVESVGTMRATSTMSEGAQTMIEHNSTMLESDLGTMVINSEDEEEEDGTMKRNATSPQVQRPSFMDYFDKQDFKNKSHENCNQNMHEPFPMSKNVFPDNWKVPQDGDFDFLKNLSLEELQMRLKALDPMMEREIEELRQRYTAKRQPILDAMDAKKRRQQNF
Chain of UniProt P31645 (whole entry, looked up): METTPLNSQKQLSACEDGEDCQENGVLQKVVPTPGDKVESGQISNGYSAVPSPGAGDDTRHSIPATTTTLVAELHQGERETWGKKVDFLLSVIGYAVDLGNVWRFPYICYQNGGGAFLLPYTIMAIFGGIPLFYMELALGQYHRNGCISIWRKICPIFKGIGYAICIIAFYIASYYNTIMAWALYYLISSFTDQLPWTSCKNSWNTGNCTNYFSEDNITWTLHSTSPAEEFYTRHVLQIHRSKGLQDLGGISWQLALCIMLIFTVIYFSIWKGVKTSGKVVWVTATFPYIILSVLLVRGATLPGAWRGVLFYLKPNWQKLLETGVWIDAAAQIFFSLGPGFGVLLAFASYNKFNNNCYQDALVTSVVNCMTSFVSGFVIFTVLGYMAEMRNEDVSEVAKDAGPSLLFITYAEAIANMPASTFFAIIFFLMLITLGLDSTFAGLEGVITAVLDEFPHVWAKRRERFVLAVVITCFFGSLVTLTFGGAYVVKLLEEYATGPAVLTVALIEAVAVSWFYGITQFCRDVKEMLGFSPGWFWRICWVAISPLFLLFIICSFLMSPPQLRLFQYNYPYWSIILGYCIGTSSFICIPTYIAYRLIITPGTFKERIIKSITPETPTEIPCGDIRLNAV
Chain of UniProt P41595 (whole entry, looked up): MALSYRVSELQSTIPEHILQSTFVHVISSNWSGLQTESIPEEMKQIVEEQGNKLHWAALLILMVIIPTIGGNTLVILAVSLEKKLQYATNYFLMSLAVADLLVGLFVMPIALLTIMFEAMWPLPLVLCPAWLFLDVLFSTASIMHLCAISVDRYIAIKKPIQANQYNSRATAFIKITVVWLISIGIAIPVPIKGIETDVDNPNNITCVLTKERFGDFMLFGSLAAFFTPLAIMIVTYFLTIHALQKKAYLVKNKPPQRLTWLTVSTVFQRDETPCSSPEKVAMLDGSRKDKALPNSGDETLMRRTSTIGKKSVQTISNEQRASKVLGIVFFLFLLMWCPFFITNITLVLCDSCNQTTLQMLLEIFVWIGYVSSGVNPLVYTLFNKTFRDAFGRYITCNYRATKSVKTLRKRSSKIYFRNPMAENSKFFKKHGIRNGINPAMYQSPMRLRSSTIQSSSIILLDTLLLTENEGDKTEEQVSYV
Chain of UniProt Q13882 (whole entry, looked up): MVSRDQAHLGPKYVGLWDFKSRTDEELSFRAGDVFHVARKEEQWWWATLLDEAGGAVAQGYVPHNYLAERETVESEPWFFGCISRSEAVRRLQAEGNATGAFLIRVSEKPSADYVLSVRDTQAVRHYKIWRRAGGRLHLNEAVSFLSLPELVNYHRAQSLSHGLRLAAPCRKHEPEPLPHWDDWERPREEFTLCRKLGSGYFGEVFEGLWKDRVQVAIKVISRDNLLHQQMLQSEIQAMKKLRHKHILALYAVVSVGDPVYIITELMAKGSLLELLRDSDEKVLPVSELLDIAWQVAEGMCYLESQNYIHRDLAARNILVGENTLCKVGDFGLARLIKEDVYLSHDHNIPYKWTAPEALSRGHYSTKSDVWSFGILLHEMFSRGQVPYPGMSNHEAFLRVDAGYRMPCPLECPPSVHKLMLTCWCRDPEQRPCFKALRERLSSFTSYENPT
Chain of UniProt Q9BXA7 (whole entry, looked up): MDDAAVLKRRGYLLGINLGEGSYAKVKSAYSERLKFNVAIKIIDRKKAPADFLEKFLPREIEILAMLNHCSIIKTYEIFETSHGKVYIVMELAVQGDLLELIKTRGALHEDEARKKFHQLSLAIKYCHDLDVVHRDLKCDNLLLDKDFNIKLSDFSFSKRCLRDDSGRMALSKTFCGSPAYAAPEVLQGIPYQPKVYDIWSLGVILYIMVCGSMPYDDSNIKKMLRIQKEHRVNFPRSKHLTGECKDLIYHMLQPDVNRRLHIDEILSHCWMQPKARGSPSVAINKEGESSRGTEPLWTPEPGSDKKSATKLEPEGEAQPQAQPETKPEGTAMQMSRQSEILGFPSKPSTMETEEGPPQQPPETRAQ
Chain of UniProt P61075 (whole entry, looked up): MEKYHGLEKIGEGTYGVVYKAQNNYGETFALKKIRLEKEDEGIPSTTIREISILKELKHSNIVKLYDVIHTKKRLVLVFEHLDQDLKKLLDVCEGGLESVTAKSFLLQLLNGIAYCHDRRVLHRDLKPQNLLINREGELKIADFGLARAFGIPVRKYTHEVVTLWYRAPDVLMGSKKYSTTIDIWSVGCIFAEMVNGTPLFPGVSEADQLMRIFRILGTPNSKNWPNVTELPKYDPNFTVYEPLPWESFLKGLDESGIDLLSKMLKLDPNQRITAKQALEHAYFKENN
Chain of UniProt O43318 (whole entry, looked up): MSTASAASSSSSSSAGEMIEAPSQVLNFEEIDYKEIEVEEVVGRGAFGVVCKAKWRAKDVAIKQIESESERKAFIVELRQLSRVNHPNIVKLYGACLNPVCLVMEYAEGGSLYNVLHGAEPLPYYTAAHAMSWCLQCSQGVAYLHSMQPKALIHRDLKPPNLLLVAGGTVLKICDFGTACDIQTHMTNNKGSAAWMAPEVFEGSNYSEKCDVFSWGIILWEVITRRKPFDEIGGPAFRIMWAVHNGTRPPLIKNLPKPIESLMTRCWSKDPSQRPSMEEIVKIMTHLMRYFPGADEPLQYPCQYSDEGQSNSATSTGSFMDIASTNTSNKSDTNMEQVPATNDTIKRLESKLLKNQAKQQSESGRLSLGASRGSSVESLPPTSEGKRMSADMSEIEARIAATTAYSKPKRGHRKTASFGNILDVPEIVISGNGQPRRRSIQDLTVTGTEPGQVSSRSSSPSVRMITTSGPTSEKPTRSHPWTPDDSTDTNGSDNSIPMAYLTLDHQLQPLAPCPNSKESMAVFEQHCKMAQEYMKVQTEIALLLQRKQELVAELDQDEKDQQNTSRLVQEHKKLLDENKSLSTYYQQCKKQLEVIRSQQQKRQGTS
Chain of UniProt O75676 (whole entry, looked up): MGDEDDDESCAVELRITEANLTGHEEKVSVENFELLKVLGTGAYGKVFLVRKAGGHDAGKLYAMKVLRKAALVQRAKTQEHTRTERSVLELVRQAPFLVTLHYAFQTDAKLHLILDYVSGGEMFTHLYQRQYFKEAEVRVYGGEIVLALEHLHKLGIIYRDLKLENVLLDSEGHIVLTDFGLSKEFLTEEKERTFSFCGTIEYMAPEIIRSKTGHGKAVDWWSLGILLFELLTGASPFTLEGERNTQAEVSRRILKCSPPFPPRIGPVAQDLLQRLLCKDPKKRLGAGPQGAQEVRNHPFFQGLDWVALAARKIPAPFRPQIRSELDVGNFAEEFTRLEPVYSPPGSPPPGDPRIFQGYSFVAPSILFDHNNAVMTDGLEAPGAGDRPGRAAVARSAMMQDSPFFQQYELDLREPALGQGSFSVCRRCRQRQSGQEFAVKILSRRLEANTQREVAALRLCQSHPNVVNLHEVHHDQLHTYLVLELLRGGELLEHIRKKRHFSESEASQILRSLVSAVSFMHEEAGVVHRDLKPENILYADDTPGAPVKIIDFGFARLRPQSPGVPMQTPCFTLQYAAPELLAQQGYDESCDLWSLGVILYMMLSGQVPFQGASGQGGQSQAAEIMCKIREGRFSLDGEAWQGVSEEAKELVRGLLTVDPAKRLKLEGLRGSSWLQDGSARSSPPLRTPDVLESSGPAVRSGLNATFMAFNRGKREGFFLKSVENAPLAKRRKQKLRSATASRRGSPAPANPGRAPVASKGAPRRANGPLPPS

Block 1 — cell line: mouse MPNST tumor cells; method: high-content nuclear imaging; measured: cell number; tested at: 10 µM; time: 12 h; setting: mean of 2 replicates; reference: plate mean; direction: higher = more cells; endpoint: nuclei count
CCN1CCN(C(=O)Cc2ccc(Nc3ncc(F)c(Nc4ccc(C(=O)Nc5ccccc5Cl)cc4)n3)cc2)CC1: -4.69 z-score
C[C@H]1CCC/C=C/[C@@H]2C[C@H](O)C[C@H]2[C@H](O)/C=C/C(=O)O1: -5.62 z-score
COc1cc2c(cc1O)C(CCc1ccc(Cl)cc1)N(C)CC2 (stereo not shown): 0.0715 z-score
Cc1sc2c(c1C)C(c1ccc(Cl)cc1)=N[C@@H](CC(=O)Nc1ccc(O)cc1)c1nnc(C)n1-2: -2.76 z-score

Block 2 — effect on: RNA clamping; method: fluorescence polarization; tested at: concentration not given; setting: mean of two replicates; with: FAM-labelled poly r(AG)8 RNA; endpoint: fluorescence polarization change
Target: Eukaryotic initiation factor 4A-III (Homo sapiens, UniProt P38919)
Chain of UniProt P38919 (whole entry, looked up): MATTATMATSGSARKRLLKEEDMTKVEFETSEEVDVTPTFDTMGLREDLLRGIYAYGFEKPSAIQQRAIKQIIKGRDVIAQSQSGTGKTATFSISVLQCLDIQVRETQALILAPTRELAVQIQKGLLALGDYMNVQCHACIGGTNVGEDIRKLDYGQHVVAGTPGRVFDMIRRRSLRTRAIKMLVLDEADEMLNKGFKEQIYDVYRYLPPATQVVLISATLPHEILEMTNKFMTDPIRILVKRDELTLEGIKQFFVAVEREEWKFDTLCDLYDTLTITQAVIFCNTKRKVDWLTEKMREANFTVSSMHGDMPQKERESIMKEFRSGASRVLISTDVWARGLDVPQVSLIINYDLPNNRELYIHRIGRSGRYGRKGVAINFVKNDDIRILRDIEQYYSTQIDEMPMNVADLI
COc1ccc([C@@]23Oc4cc(OC)cc(OC)c4[C@]2(O)c2nc(-c4ccccc4Cl)[nH]c(=O)c2[C@H]3c2ccccc2)cc1: 25.9 mP
COC(=O)[C@@H]1[C@@H](c2ccccc2)[C@]2(c3ccc(OC)cc3)Oc3cc(OC)cc(OC)c3[C@@]23OC(c2ccc(Cl)cc2)=N[C@@]13O: 4.8 mP
COc1ccc([C@@]23Oc4cc(OC)cc(OC)c4[C@]2(O)c2nc(-c4ccc(O)cc4)[nH]c(=O)c2[C@H]3c2ccccc2)cc1: 9.5 mP
COC(=O)[C@@H]1[C@@H](c2ccccc2)[C@]2(c3ccc(OC)cc3)Oc3cc(OC)cc(OC)c3[C@@]23OC(c2ccccc2)=N[C@@]13O: 4 mP

Block 3 — effect on: enzyme activity; mode: inhibitor; tested at: 0.5 µM; reference: control; endpoint: remaining activity
Compound: N/C(=N\[N+](=O)[O-])N/N=C\c1ccc(-c2cccc([N+](=O)[O-])c2)o1
Testis-specific serine/threonine-protein kinase 1 (TSSK1B, Homo sapiens, UniProt Q9BXA7): 96.7%
Serine/threonine-protein kinase 3 (STK3, Homo sapiens, UniProt Q13188): 100%
Mitogen-activated protein kinase kinase kinase 7 (MAP3K7, Homo sapiens, UniProt O43318): 91.5%
Protein-tyrosine kinase 6 (PTK6, Homo sapiens, UniProt Q13882): 101%

Mixed results
O=C(NCc1ncc(C(F)(F)F)cc1Cl)c1ccc2c(c1)C1(CCS(=O)(=O)CC1)[C@@H](C1CC1)N2S(=O)(=O)c1ccc(F)cc1 — remaining binding (Ribosomal protein S6 kinase alpha-4, N-terminal kinase domain (RPS6KA4, Homo sapiens, UniProt O75676); cell-free assay, competition with immobilised ligand; 1 µM): 96%
CNC(=O)Nc1ccc2c(c1)CC[C@]21OC(=O)N(CC(=O)N(Cc2ccc(F)cc2)[C@@H](C)C(F)(F)F)C1=O — inhibition (Sodium-dependent serotonin transporter (SLC6A4, Homo sapiens, UniProt P31645); ligand displacement; 10 µM): 95.6%
COc1ccc2c(c1)O[C@H](c1ccc(OC)c(OC)c1)C[C@@H]2NC(=O)C1(c2ccc3c(c2)OC(F)(F)O3)CC1 — remaining binding (Cyclin-dependent kinase 2 homolog (CRK2, Plasmodium falciparum, UniProt P61075); cell-free assay, competition with immobilised ligand; 1 µM): 92%
Cc1c(N2CCNCC2)nc2ccc(Br)cc2c1C(=O)NC[C@H](CCC(=O)O)c1ccccc1Cl — inhibition (5-hydroxytryptamine receptor 2B (HTR2B, Homo sapiens, UniProt P41595); ligand displacement; 10 µM): 31%

Repeated from above (block 3):
Testis-specific serine/threonine-protein kinase 1 (TSSK1B, Homo sapiens, UniProt Q9BXA7): 96.7%
Serine/threonine-protein kinase 3 (STK3, Homo sapiens, UniProt Q13188): 100%
Mitogen-activated protein kinase kinase kinase 7 (MAP3K7, Homo sapiens, UniProt O43318): 91.5%
